Published values collected from several papers.
Every numbered part comes from another study and shows a few of its results, in no order.
Sequence of UniProt Q96PY6 (whole entry, looked up): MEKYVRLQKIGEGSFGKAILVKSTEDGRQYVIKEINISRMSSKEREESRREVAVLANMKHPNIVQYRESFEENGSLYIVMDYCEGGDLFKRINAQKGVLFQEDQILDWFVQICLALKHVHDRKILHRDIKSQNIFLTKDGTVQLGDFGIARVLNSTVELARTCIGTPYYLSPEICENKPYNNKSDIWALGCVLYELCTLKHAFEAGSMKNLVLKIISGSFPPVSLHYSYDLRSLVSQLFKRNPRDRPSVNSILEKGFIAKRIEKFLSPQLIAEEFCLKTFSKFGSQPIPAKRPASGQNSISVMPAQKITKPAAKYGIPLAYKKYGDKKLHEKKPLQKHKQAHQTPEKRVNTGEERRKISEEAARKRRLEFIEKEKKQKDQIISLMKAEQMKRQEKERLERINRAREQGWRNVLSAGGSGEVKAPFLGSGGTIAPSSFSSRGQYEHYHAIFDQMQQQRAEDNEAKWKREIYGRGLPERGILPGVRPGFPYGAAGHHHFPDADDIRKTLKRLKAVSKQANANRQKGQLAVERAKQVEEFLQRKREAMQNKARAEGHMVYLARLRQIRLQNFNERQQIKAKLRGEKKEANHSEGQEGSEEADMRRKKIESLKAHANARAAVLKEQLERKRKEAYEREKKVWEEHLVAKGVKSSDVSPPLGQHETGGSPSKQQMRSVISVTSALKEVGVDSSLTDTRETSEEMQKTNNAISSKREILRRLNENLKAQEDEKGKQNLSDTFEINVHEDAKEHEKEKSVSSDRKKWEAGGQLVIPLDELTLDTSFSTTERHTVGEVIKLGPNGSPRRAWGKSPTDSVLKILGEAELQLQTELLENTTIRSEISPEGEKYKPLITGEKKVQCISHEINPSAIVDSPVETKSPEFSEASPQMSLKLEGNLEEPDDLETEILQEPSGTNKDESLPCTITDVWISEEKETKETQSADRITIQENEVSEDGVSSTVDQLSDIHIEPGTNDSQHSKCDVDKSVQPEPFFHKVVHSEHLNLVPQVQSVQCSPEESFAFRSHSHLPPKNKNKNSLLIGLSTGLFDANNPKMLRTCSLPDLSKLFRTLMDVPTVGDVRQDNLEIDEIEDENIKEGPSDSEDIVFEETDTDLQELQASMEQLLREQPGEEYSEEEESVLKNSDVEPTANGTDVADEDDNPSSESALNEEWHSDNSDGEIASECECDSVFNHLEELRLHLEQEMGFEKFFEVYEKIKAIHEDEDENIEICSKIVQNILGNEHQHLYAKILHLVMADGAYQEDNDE
Sequence of UniProt Q15349 (whole entry, looked up): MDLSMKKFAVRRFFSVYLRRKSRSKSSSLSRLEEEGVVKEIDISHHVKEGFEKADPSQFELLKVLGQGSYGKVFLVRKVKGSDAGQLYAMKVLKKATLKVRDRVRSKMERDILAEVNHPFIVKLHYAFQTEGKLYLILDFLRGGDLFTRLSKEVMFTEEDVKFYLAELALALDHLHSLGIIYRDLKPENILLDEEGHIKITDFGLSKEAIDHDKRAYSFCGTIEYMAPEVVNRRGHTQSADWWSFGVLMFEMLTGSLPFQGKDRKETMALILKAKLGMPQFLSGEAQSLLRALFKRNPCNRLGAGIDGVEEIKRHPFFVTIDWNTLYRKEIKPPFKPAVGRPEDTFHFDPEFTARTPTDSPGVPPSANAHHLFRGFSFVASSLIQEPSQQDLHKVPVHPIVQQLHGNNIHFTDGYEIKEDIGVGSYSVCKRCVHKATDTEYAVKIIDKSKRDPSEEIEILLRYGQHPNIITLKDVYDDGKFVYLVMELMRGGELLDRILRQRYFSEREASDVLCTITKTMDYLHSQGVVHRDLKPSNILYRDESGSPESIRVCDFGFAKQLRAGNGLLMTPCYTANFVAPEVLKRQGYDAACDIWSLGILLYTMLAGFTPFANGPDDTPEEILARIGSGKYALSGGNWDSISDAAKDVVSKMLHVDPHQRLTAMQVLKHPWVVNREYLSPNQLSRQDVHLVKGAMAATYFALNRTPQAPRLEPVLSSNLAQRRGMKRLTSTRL
Sequence of UniProt Q9Y6M4 (whole entry, looked up): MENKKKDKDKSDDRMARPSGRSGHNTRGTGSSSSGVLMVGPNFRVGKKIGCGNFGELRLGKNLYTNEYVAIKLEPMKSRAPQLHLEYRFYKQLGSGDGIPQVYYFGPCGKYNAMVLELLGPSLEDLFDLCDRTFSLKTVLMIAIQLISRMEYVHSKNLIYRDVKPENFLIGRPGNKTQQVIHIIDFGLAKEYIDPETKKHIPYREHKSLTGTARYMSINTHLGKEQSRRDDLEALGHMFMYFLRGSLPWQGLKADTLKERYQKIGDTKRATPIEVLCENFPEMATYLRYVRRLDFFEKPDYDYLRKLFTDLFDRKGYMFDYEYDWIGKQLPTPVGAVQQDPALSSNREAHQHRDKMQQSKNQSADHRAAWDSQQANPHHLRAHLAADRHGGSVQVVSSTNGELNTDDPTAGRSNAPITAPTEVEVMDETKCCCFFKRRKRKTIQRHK
Sequence of UniProt Q8WTQ7 (whole entry, looked up): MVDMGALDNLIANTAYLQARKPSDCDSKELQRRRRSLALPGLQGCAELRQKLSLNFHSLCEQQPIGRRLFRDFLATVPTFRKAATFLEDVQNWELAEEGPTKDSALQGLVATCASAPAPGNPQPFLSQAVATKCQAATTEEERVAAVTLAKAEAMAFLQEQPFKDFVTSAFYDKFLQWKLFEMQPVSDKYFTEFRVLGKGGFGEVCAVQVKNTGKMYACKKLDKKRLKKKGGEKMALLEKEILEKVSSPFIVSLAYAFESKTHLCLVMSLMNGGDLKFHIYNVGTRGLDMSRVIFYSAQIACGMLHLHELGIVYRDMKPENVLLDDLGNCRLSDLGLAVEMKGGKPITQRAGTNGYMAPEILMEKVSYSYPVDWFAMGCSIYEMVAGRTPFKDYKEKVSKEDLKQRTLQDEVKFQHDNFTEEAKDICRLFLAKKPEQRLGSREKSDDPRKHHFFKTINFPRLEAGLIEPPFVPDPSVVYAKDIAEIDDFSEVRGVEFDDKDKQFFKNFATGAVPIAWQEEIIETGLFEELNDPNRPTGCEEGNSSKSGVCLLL
Sequence of UniProt P78368 (whole entry, looked up): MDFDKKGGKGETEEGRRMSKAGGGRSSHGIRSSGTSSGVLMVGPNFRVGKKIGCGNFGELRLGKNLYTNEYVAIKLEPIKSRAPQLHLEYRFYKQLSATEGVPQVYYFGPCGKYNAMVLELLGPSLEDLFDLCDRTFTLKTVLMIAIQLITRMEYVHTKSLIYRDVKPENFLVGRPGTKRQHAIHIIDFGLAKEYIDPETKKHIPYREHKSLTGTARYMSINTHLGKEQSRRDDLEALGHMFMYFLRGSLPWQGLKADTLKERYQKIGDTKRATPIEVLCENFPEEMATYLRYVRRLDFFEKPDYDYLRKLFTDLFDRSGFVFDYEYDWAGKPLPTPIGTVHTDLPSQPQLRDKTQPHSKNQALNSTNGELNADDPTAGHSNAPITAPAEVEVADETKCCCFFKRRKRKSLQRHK
Sequence of UniProt P42685 (whole entry, looked up): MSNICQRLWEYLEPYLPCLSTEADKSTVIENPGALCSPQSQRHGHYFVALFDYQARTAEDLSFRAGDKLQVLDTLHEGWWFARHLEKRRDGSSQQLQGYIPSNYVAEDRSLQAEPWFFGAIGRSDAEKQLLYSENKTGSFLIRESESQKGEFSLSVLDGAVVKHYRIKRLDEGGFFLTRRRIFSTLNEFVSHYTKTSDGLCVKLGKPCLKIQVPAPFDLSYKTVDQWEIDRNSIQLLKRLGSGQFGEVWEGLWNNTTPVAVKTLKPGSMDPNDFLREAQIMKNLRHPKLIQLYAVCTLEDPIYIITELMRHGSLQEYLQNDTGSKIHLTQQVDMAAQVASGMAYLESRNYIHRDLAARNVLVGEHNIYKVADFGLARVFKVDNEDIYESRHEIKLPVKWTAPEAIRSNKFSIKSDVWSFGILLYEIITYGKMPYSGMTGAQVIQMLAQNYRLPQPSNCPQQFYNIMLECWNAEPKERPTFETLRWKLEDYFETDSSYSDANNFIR
Sequence of UniProt Q8IW41 (whole entry, looked up): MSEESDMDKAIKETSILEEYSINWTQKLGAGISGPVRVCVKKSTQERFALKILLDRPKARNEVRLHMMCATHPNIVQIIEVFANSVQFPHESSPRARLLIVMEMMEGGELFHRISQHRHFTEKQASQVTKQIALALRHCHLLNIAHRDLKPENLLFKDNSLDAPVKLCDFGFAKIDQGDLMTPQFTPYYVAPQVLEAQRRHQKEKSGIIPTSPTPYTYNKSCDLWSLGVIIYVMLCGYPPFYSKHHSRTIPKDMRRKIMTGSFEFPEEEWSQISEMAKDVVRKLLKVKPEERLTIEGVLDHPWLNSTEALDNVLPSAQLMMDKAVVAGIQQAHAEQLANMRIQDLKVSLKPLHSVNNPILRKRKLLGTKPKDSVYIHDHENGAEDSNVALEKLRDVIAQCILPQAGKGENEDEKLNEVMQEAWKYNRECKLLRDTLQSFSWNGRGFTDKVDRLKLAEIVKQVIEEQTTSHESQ

Study 1 — observed: enzyme activity; action: inhibitor; tested at: 0.5 µM; baseline: control; measurement: remaining activity
Structure (SMILES): O=Nc1c(-c2c(O)[nH]c3cc(Br)ccc23)[nH]c2ccccc12
FGFR1 (Homo sapiens, UniProt P11362): 45.1%
NEK1 (Homo sapiens, UniProt Q96PY6): 93.8%
MAP3K14 (Homo sapiens, UniProt Q99558): 89.6%
CSNK1G3 (Homo sapiens, UniProt Q9Y6M4): 78.3%
GRK7 (Homo sapiens, UniProt Q8WTQ7): 96.7%
TBK1 (Homo sapiens, UniProt Q9UHD2): 62.1%
CSNK1G2 (Homo sapiens, UniProt P78368): 105%
JAK3 (Homo sapiens, UniProt P52333): 53.3%
MAP3K5 (Homo sapiens, UniProt Q99683): 91.6%
FRK (Homo sapiens, UniProt P42685): 23.2%
RPS6KA2 (Homo sapiens, UniProt Q15349): 33.7%
MAPK3 (Homo sapiens, UniProt P27361): 83.3%
EPHA3 (Homo sapiens, UniProt P29320): 81.9%
MERTK (Homo sapiens, UniProt Q12866): 79.4%

Study 2 — method: RNA Bind-n-Seq; molecule type: RNA; medium: in vitro; tested at: 200 nM; setting: whole 134-nt RNA, ends assumed; added: 150 mM KCl; baseline: input library; direction: higher = stronger binding; measurement: log2 enrichment
Target: Ras GTPase-activating protein-binding protein 1, full length (G3BP1, Homo sapiens, UniProt Q13283)
Sequence of UniProt Q13283 (whole entry, looked up): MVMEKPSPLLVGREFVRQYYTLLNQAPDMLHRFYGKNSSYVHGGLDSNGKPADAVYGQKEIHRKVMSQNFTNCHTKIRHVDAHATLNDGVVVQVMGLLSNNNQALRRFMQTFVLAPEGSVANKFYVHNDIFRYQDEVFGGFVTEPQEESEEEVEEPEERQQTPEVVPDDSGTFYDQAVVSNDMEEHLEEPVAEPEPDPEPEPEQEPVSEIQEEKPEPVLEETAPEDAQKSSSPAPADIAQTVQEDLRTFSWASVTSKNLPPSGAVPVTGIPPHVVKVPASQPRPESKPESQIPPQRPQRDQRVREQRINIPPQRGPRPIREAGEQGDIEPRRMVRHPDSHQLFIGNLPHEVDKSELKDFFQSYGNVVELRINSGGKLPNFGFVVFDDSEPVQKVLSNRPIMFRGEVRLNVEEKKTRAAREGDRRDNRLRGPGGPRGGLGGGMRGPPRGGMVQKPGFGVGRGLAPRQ
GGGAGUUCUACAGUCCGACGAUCCUCAAGUCCUGUGCUACACAUCGUAUGUACCGAAUCGGUUUGGUGGAAAAAGGAAAGUAUUAUGUUACGCCGUUCGGAUCUGCACUUCCAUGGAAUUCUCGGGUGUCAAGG: -0.325
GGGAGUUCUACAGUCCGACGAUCCACAGACAACACGCACCCACACAGACACAGAGGGAAGGGGUUGGGAUGGGGACAGGGUGCACAGCAGGGCGGGGUAGAACCCCAGCCCCUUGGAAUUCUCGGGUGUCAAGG: 1.88
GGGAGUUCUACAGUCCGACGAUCAGUUACUCAGUUCAUUUUGGAUAACUACAUUGAAAGAGGAAAAGGAUCUGCUUGCAGAAUAGUUUGUACUCAGCCAAGAAGAAUUAGUGCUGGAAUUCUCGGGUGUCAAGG: -2.13
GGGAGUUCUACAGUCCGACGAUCGUCCUGUGCUACACAUCGUAUGUACCGAAUCGGGAAAAAAAGGGAGGGAAAAAAAGGGAAAGUAUUAUGUUACGCCGUUCGGAUCUGCACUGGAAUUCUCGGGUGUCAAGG: -0.229
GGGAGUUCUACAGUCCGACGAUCGGAUUGGUAGCUUAUGUCGAUCUUGAUGAAAGAGCAAUUGAUGCUCUCAGGGAAUUUAAUGAAGAAGGAGCUCUGUCUGUACUACAGCAGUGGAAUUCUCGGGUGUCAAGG: -1.7
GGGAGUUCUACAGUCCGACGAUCUGGGAGGUGGAUUUUGUUUAUUUUUUUAGCUCAUUUCCAGGGGUGGGAAUAUUUUUUUAAUAUGUGUCAUGAAUAAAGUUGUUUUUGAAAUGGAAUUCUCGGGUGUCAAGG: 0.157
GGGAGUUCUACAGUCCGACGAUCCCUCAAGUCCUGUGCUACACAUCGUAUGUACCGAAUCGGAAGGAAGGGAAGGAAAGUAUUAUGUUACGCCGUUCGGAUCUGCACUUCCAGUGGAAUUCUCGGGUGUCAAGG: -0.0855
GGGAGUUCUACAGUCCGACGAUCUGCCUCCCUGCUGCAGAAAUACACCGACAACAGCGAGAAGCCAUCCGGGAAGAGACUGUGCAAAACCAAACACUUGAUCCCUCAGGAGUCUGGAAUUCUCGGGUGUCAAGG: 0.0889

Study 3 — method: competition with immobilised ligand; tested at: 1 µM; measurement: remaining binding
Structure (SMILES): CNC(=O)Nc1ccc2c(c1)[C@@]1(CC2)OC(=O)N(CC(=O)N(Cc2ccc(F)cc2)[C@@H](C)C(F)(F)F)C1=O
LTK (Homo sapiens, UniProt P29376); cell-free assay: 100%
Myosin-IIIb (MYO3B, Homo sapiens, UniProt Q8WXR4); binding: 100%
STK32A (Homo sapiens, UniProt Q8WU08); cell-free assay: 100%
MAPKAPK5 (Homo sapiens, UniProt Q8IW41); cell-free assay: 86%
Myosin-IIIa (MYO3A, Homo sapiens, UniProt Q8NEV4); binding: 100%
DSTYK (Homo sapiens, UniProt Q6XUX3); cell-free assay: 89%

Study 4 — method: aptamer microarray, sandwich; molecule type: DNA with 2'F-ANA; medium: in vitro; tested at: 200 nM; added: Cy3 exosite-II aptamer, 400 nM; direction: higher = stronger binding; measurement: mean fluorescence intensity; sequence: GGTTGGTGTGGTTGG
Target: Prothrombin, mature alpha-thrombin (F2, Homo sapiens, UniProt P00734)
Setting: whole 15-mer aptamer, many near background
2'F-ANA at 4 5 8 9 10 12 13: 48.1 a.u.
2'F-ANA at 1 3 6 7 8 11 12: 441 a.u.
2'F-ANA at 1 3 5 8 10 11 12 15: 50.9 a.u.
2'F-ANA at 3 4 5 6 7 8 10: 49.9 a.u.
2'F-ANA at 1 3 4 6 7 9 11 12 14: 68.7 a.u.
2'F-ANA at 1 2 4 5 6 7 8 9 13 14 15: 49.5 a.u.
2'F-ANA at 1 4 7 9 10 11 12: 57.5 a.u.
2'F-ANA at 1 3 5 6 7 8 10 11 12: 58.2 a.u.

For quick reference, copied from above (study 1):
NEK1 (Homo sapiens, UniProt Q96PY6): 93.8%
MAP3K14 (Homo sapiens, UniProt Q99558): 89.6%
CSNK1G3 (Homo sapiens, UniProt Q9Y6M4): 78.3%
